Published values of several laboratories.
Numbered parts are unrelated; each lists some results of a single study. Changes are numbered by the printed parent chain.

Study 1
Target: Interferon regulatory factor 7, full length, phosphomimetic (IRF7, Homo sapiens, UniProt Q92985, residues 1-503, S101K/S471D/S472D/S475D/S476D/S477D/S483D/S484D/S487D)
Technique: protein-binding microarray
Form: double-stranded DNA, one strand shown
Medium: in vitro
Tested at: 250 nM
Notes: 60-bp whole probe
Together with: salmon DNA 0.4 mg/ml
Relative to: random background probes
Reading: higher = stronger binding
Constant ends, left off below: GCCTAGCAC … GTCTTGATTCGCTTGACGCTGCTG
Residues (chain): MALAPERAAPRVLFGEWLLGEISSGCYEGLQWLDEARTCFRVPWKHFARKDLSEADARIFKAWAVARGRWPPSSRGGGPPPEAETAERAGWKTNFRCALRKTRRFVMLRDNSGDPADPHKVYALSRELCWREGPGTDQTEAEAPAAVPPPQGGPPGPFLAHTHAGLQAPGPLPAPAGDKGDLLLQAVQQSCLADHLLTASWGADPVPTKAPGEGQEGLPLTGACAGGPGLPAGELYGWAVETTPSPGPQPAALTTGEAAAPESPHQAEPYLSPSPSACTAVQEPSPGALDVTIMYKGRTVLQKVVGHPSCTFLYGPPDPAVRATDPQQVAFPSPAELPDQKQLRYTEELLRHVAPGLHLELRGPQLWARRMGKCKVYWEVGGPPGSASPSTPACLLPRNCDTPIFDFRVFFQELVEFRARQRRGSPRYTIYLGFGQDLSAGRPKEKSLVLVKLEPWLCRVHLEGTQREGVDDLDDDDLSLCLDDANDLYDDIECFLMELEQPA
The log fluorescence of `GACGGTTCCCTTCTCCTGACGTGCTAG` is reported as 0.967 z-score.
`GACGTTTTCCTTATCCTGACGTGCTAG` gave a log fluorescence of 1.87 z-score.
The log fluorescence of `TTAGGACTGCTTCTCCATTAGTGCTAG` is reported as 0.919 z-score.
`GACGATTTCAGGTTCGAGACGTGCTAG` has a log fluorescence of 0.899 z-score.
For `GACGATATGAGTATCGAGACGTGCTAG`, the log fluorescence was -0.0302 z-score.
For `TTAGGTCTCCTTTTCATTTAGTGCTAG`, the log fluorescence was 1.73 z-score.
With `GACGAACTGGGGTATCGGGACGTGCTA` the log fluorescence was -0.364 z-score.
With `GACGATTCCAGTTTCGCGACGTGCTAG` the log fluorescence was 2.01 z-score.
`TCACATTTGGTTAGCGTACTGTGCTAG` gave a log fluorescence of 0.725 z-score.
`CTAGGTATCGGGACTGGGTTAGTGCTA` has a log fluorescence of 0.615 z-score.
The log fluorescence of `TTCACTTTCTTTAACATATTGTGCTAG` is reported as 1.12 z-score.
With `GACGGTCTCCTTCTCCTGGCGTGCTAG` the log fluorescence was 0.307 z-score.
The log fluorescence of `GACGGTATGGACTATCGGGACGTGCTA` is reported as -0.676 z-score.
The log fluorescence of `GACGATTTCGGGACTGGGGACGTGCTA` is reported as 0.385 z-score.
For `GATTCTTTCGATGCTAAACGAGTGCTA`, the log fluorescence was 1.64 z-score.
`TTAGATTTCAGACTGAATTAGTGCTAG` gave a log fluorescence of 0.313 z-score.
With `GTAGGACTGGGTATCGGTTAGTGCTAG` the log fluorescence was 0.598 z-score.
The log fluorescence of `TGATAAATCTTTGTTGGAGGGGTGCTA` is reported as -0.419 z-score.

Study 2
Target: Histone acetyltransferase KAT6A, winged helix 1, GST fusion (KAT6A, Homo sapiens, UniProt Q92794, residues 1-85)
Technique: protein binding microarray
Form: double-stranded DNA, one strand shown
Medium: in vitro
Tested at: not given
Notes: 8-mer, flanks averaged, mean of 2 arrays, mostly near background
Relative to: not given
Reading: higher = stronger binding
Residues (chain): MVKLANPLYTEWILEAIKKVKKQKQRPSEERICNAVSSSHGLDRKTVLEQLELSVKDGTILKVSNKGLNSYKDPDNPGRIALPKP
`ACCACACC` has an E-score of -0.00355.
With `CAACGGAC` the E-score was 0.189.
`CCAGCTGG` gave an E-score of -0.252.
For `TGCAGGCA`, the E-score was -0.201.
`CTGCAGGC` has an E-score of -0.174.
With `TACGGTAA` the E-score was 0.227.
The E-score of `CTTATACA` is reported as -0.00899.
For `CCCTCTGC`, the E-score was -0.123.
With `GAGGAATC` the E-score was -0.0326.
The E-score of `AGGATCGG` is reported as -0.0376.
For `ACTCGACG`, the E-score was 0.0192.
`AAAAAGGT` has an E-score of -0.149.
The E-score of `GATAGCCC` is reported as 0.00408.
The E-score of `ACCCAACC` is reported as -0.099.
The E-score of `ATGATTCA` is reported as -0.149.

Study 3
Target: CCNE1, cyclin fold, Cln2 fusion (human)
Technique: yeast growth competition, sequencing
Medium: yeast
Notes: strong parent motif
Relative to: not given
Reading: higher = stronger binding
Starting sequence: E2F1 docking peptide (human); PPVKRRLDLETDH; partner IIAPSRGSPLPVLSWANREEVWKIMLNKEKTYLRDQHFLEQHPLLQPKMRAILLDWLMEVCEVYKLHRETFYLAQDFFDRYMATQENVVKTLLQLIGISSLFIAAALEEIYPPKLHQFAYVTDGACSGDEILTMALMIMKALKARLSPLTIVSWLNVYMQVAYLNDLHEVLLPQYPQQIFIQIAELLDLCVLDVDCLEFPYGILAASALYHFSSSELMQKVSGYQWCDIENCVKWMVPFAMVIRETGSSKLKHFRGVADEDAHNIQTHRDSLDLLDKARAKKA
`L7S` — result for “normalised enrichment score”: -0.427.
For `H13V`, “normalised enrichment score” read 1.98.
`L7K`: “normalised enrichment score” -0.387.
Under “normalised enrichment score”, `R5T` is recorded as -0.189.
Under “normalised enrichment score”, `E10G` is recorded as 2.38.
`V3W`: “normalised enrichment score” 0.923.
Under “normalised enrichment score”, `D8K` is recorded as 1.17.
`D12M` — result for “normalised enrichment score”: 1.87.
For `R5F`, “normalised enrichment score” read 0.345.
For `T11S`, “normalised enrichment score” read 2.45.
Under “normalised enrichment score”, `D8P` is recorded as 0.0833.

Single results of other studies
For `PhoQ, residues 284 288 289 292 302 303 TSTLRA`, the fold induction was 7.89 (PhoP, residues 12 14 15 18 19 QQAYL (Escherichia coli, UniProt P23836); Sort-seq, measured: YFP reporter; E. coli; PhoQ-PhoP variant library, together with: 10 µM Mg2+; relative to: high Mg2+ state, higher = stronger signaling).

A few entries again (study 2):
With `CAACGGAC` the E-score was 0.189.
`CCAGCTGG` gave an E-score of -0.252.
For `TGCAGGCA`, the E-score was -0.201.
